Measurements gathered from unrelated publications.
Numbered parts are unrelated; each lists some results of a single study.

Set 1 — technique: universal PBM; form: double-stranded DNA, one strand shown; medium: in vitro; tested at: 600 nM; direction: higher = stronger binding; quantity: E-score
Target: Sal-like protein 4, full length isoform A (SALL4, Homo sapiens, UniProt Q9UJQ4, residues 1-1053)
Chain of UniProt Q9UJQ4 (whole entry, looked up): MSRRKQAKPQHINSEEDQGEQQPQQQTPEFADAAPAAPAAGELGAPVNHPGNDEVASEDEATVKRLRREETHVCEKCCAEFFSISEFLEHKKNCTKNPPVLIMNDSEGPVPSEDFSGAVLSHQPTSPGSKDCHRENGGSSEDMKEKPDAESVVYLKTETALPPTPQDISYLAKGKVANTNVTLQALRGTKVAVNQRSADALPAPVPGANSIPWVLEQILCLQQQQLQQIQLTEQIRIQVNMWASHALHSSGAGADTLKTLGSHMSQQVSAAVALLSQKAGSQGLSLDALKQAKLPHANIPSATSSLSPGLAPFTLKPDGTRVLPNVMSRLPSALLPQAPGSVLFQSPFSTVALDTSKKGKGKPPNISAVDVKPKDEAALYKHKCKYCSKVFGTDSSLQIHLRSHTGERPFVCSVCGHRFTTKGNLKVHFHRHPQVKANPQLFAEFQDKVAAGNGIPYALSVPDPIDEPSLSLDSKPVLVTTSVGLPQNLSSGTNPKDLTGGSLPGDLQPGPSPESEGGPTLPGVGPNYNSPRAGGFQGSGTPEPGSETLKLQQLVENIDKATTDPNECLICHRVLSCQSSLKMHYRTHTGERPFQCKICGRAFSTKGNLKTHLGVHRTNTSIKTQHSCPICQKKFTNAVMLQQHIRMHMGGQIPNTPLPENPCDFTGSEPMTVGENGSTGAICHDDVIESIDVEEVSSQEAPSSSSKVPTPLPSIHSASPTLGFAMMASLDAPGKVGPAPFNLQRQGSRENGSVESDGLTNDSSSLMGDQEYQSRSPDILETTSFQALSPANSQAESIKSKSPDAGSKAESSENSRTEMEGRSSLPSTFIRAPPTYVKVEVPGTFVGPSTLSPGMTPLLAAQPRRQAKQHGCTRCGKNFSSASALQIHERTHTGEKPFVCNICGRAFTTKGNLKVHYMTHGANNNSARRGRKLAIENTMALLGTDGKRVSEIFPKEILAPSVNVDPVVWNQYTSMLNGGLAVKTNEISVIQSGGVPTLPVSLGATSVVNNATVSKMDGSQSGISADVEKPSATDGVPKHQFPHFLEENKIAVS
Notes: 8-mer, flanks averaged, mean of replicates
Sequence = AAGCTCCA; result = -0.0815
Sequence = CACTTAGG; result = -0.00647
Sequence = AATGTGCC; result = -0.0139
Sequence = AGCCTATC; result = -0.0479
Sequence = AGGCAAGG; result = -0.199
Sequence = CAGTCCAA; result = -0.113
Sequence = CCTAGAAG; result = -0.0793
Sequence = ACGCTGCT; result = -0.09
Sequence = GTTCCCCA; result = -0.104
Sequence = GCTTTCTA; result = 0.105
Sequence = TGTGGCAA; result = -0.00957
Sequence = AGAAGTGG; result = -0.0621
Sequence = ATTGTACA; result = 0.18
Sequence = ACCAGAGG; result = -0.163
Sequence = ACAATCGA; result = 0.0837
Sequence = CTGAGAAA; result = 0.00415
Sequence = ACACCCAA; result = -0.101
Sequence = AGGTAGTC; result = -0.0902
Sequence = ATTTCTAG; result = 0.203
Sequence = CCCAAGGA; result = -0.225
Sequence = CGAGTTGA; result = -0.109
Sequence = CTCAGCAA; result = 0.142
Sequence = GAGTCTAA; result = 0.0426
Sequence = GTGCGGTA; result = -0.187
Sequence = CACTTACA; result = 0.173

Set 2 — technique: RNA Bind-n-Seq; form: RNA; medium: in vitro; tested at: 365 nM; relative to: no-protein control; direction: higher = stronger binding; quantity: RBNS enrichment (R)
Target: RNA binding protein fox-1 homolog 2, RRM domain, GST-SBP tag (RBFOX2, Homo sapiens, UniProt O43251-10, residues 100-194)
Notes: natural RNA segment, single round, ends assumed
All sequences stand within: GGGAGUUCUACAGUCCGACGAUC … UGGAAUUCUCGGGUGCCAA
Construct (chain): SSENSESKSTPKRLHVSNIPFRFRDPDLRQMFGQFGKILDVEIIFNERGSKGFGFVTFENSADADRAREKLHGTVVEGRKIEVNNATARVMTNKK
Sequence = CAAGGCCUACUGACCAAAUUGUUGUGUCGAGAUAUUUAACUUUUGCCAAAUAAAAUAUAUUGAUUCUUUACGUUGUGCGGCUCUGCUCUUUGCACCUUCUUUUUCUAGGU; result = 0.64
Sequence = GGGUGAGCCCUGCUGUGAGAGUUCAGGCCCUGGGAGGCUCAGCCACCUCCUCUUGUGGGAAGGAGGUCUCAGCCCCACCUCGCAUCUUCACCUGCCCUUGGUGUGGACAC; result = 0.357
Sequence = GCUUUUUAAUUUACAAUGAAACAAAGAAACAAAUUCCUUUGACCAAAUUGCUUGUCUAUAGUUGUCUGCAGUACUGUAUGAUUUUACCCAUGUGCAAUUUGUAAAAUGAA; result = 1.16
Sequence = AGAGCUGAGCAUUGUCUCAUCCAGAGCUAAGGACAUGAGUCCUCUAUUUCAAGUAGGGAAACCCAGGUGGACUUUGCUCAAGAUGGUUCCCAAAAUGAGAGGCACCAACU; result = 0.271
Sequence = CAGCCCUGGCAAAGGGCUUCUGCUCACCACAGAUCUAUAGCCAGUCUGAAUAGAGGAAGAGAGAACCCCACAACAGCCAUACACGGGUAGUGUCCCUUUCCUCUCAGAGC; result = 0.225
Sequence = UCUUGUUUAAAAGAUGUCUGAAACCUUUUUAUGGCGUGUUUGUAUUAAAAAUAAAGUAUAGAGGCCAGAGAGUGCUUCCUUUUGUUCACCCUGUUGUCCUUACCACAUUA; result = 0.326
Sequence = GCCAAGCCCCCCUGACCCUCUCUCCCCACUACCACCUUCUUCCUGAGCUGGGGGCACCAGGGAGAAUCAGAGAUGCUGGGGAUGCCAGAGCAAGACUCAAAGAGGCAGAG; result = 0.413
Sequence = AUUUUGUCGCUGUUCUUUGUCCUUUAUUCUUUGUUUACUCUCUCGAAAAUAAAAGGGCUAAACUAUUAAUUAGAUAAUCAUUUCUUAGUGACUAAUACAGCGCUGAUCUG; result = 0.384

Set 3 — technique: protein binding microarray; form: double-stranded DNA, one strand shown; medium: in vitro; tested at: not given; relative to: not given; direction: higher = stronger binding; quantity: E-score
Target: Histone acetyltransferase KAT6A, winged helix 1, GST fusion (KAT6A, Homo sapiens, UniProt Q92794, residues 1-85)
Notes: 8-mer, flanks averaged, mean of 2 arrays, mostly near background
Construct (chain): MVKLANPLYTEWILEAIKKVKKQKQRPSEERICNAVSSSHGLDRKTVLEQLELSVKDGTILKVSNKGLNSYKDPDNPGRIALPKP
Sequence = AATTCCAG; result = -0.154
Sequence = TACAGCTA; result = -0.215
Sequence = CTTTTGTC; result = -0.00961
Sequence = ATAATAAG; result = -0.132
Sequence = GCATTGAC; result = 0.0316
Sequence = AAGTCGGT; result = -0.143
Sequence = ATTATTGC; result = 0.0428
Sequence = CCTACAAG; result = -0.248
Sequence = AGAAGTGC; result = -0.143
Sequence = TGGTAACA; result = -0.0659
Sequence = AAGATTCA; result = -0.154
Sequence = CATCCGAG; result = -0.05
Sequence = GAGGGGTA; result = -0.0837
Sequence = ACCGGTGA; result = 0.222
Sequence = AACTTCGC; result = 0.0685
Sequence = ATAACTCC; result = -0.0931
Sequence = AATAGTTG; result = -0.0898
Sequence = ATGTAAAC; result = -0.0238
Sequence = AGGCCCAC; result = -0.133
Sequence = AAAGAATA; result = -0.149
Sequence = AGTAAGAC; result = 0.00365
Sequence = GGTTAAGA; result = 0.0107
Sequence = TGAATCAA; result = -0.0503
Sequence = GCGTTAAA; result = 0.0838
Sequence = GCAGAAGA; result = -0.177

Set 4 — technique: RNA Bind-n-Seq; form: RNA; medium: in vitro; tested at: not given; relative to: input RNA pool; direction: higher = stronger binding; quantity: bound/input enrichment
Target: RING finger protein unkempt homolog, zinc fingers 1-6, GST-SBP tag (UNK, Homo sapiens, UniProt Q9C0B0, residues 30-357)
Chain of UniProt Q9C0B0 (30-357, looked up): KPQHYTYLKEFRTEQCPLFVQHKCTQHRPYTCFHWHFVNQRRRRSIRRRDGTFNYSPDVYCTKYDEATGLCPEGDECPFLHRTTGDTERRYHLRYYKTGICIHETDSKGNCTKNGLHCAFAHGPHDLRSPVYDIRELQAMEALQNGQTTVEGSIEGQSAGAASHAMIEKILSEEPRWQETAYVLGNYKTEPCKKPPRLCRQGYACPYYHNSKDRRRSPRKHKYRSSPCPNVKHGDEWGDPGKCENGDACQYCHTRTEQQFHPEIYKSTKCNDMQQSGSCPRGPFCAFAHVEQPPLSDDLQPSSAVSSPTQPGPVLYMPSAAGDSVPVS
Notes: RNA with constant flanks, human and mouse sites, ends assumed
All sequences stand within: GGGAGUUCUACAGUCCGACGAUC … CAACAGAGGAUUGAGCAUCA
Sequence = CAGUUUGGGAUCCCAUGAAGAGAGGGGCCCUAGGACAGCUCUUCCCUCGUCUUCACCCCGUCUCCACCCCACCUCUUCUGGCCCCCAGCCUCACUGUGGCUCUCUACAGUACCUAACCUG; result = 0.432 ratio
Sequence = GAGGAUUAUGACAGAUUACGACCGCUGAGUUAUCCACAAACAGAUGUAUUUCUAGUCUGUUUUUCAGUGGUCUCUCCAUCUUCAUUUGAAAACGUGAAAGAAAAGUGGGUGCCUGAGAUA; result = 0.282 ratio
Sequence = GAGUCUUAUUUGGAACUUGUGAAGUCCCUGUGUCUGGGGCCAGCACUGAUCCACACAGCUAAGUUUGCACUUGUCUUCCCUCUCAUGUAUCAUACCUGGAAUGGGAUCCGACACUUGAUG; result = 0.213 ratio
Sequence = GAAUAAGGAGCACGAUGCAAGGGCGCUGUGGCCCCCGGGUGAUCUCCCACCACACUUACUGUCUUCCUUUAUCUCUGUGGACUUGUAUAUAUUCUGGAAGGGGAACCACAGUUUCACCAU; result = 0.217 ratio
Sequence = GCCAGUACAUCUGACAUUGAAGAGAAGGAGAACAGAGAGUCUUCAAGUUUGCGAACAAGUAGUUCUUACACAAGAAGAAAAUGGGAAGAUGAUCUUAAAAAGAAUAGUUCGAUCAAUGAA; result = 0.359 ratio
Sequence = CAAAAUGCUUCAAGUGAUAACCAAGGAAUUCAAUUAAGUGCAGUUCAAGCUGCUAGGAAGCUUUUGUCCAGUGAUCGAAAUCCACCAAUUGAUGACUUAAUAAAAUCUGGAAUAUUGCCC; result = 0.345 ratio
Sequence = AAACAAGAGACCCUCCCUCCCGGCCAUGUUCCUUGCGGCAGUUGGUGAACUGAGUCUGUAAAUAGGGCCCUACCGGUUUUUGUUUUUGUUUUGUUUUGUUUUUCUGUAGGCCUGCAUUGU; result = 0.81 ratio
Sequence = GUCUGUUAUGAAUUUGCUGUCCUUUUUAUUGUGUGUACCUGUACAGUUUUUCGGAGGCUGGUACUUCUACAUUCAGGCUUAUAAAGCACUGAAGCAUAAGACAGCAAAUAUGGACGUACU; result = 0.116 ratio

Repeated from above (set 3):
Sequence = AACTTCGC; result = 0.0685
Sequence = ATAACTCC; result = -0.0931
Sequence = AATAGTTG; result = -0.0898
Sequence = ATGTAAAC; result = -0.0238
Sequence = AGGCCCAC; result = -0.133
Sequence = AAAGAATA; result = -0.149
Sequence = AGTAAGAC; result = 0.00365
Sequence = GGTTAAGA; result = 0.0107
Sequence = TGAATCAA; result = -0.0503
Sequence = GCGTTAAA; result = 0.0838
